Measurements collected from several papers.
Numbered parts are unrelated; each lists some results of a single study.

Sample 1
Target: RNA binding protein fox-1 homolog 2, RRM domain, GST-SBP tag (RBFOX2, Homo sapiens, UniProt O43251-10, residues 100-194)
Technique: RNA Bind-n-Seq
Form: RNA
Matrix: in vitro
Concentration: 365 nM
Notes: natural RNA segment, single round, ends assumed
Baseline: no-protein control
Direction: higher = stronger binding
Quantity: RBNS enrichment (R)
Constant ends, left off below: GGGAGUUCUACAGUCCGACGAUC … UGGAAUUCUCGGGUGCCAA
Residues (chain): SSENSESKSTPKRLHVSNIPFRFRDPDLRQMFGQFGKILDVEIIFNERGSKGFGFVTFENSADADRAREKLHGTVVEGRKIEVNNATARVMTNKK
GAUGACUAUUUUGUGACUUUCUUAAAAGGUCUGAUUUGUAGACUUCUAAAUAUAACACACAGCACAGAGACGGUUGCCUGUGUUGUCAUUCCUCAAGAGCCUUUGUAUCA: 1.28
UCUGCACUUACUCCCCAUCAGAAGAUCGAGUUUUAUGCAUCACAGUUAACAUGUCAGCUGGCCCUCCAGGCCCCCGCCCCCAUCCCGUCCACGUUGCUGUGUCGUGAGGU: 1.07
GAUUGCGAAACACAGGAAUGUGCAGGCGCUCCGGGGGGUGUAAAGUGAACGUUUCCAUCGUUAGAAUGUUUUCUCUGGCCAUUUGUGGAUUUAAUGCACUUGACGUGGAU: 0.55
GUGUAAGUUUAAUUAAUUGUAUAUUGUGUGAAUAGAACAACUUAAAUAUUACAGCAAUACACUGGGCUAGUGUCUCACAAAUAACUGAUUUACUCAGAGCCACCUGACAG: 0.357
GACUCAGGACAGAGCAUCUCACGCGAAGUUCUGUGUGGCAGUCAAGUGUUCCUCGUGGAGUCAGCCUGAGGUAGAUUUCCAGGAAAGCCUUUUCCUCGUUACCAGUGUGU: 0.338
GAGUGAGGCAAGCCCUUCCUAUGAAGAUGAGCAAAAAUAUUAUUCCACUUCACUCUGAGUGCUUUCAGGAUCUGGGGCUUCAAGACUCACUGCUUCAGUCAGCCUUCAUU: 0.38
AGUUGUGGUACACGUCCCCGGUGCUGGGUUGGCCGUGACUCGGGGGCGGGGCGAUCGGGUCUCAGCCCCUGCCUUCCCCAGUCUCUGGGUCACCCGAAUUUUCCCACCCC: 0.345
UUGUAUUUUCAAAUAAAUAAGUUUGUGAAAGGUUUCCAUCCUCUACUGUGGUCCAGAAAUCAAUGUGUUUGUCUGACAAAAAAAAUAAUAAAAUAAACUGUUUUGAACAG: 0.77
UUGCUGAAUUGAACACUAUUGUGUCUUAAAUACUUGCACUAAAAAAGUGCACUGCAAGGCCAGAAAAUUUUACAAUCUUCUUUCUUUUAUGUUCUGUAGUGUGUUUACCC: 0.494
GAACCAUCUCUUCUGGGCAGUUUUGUUGAAAAUAAAGGUUUCUCUUUGAUUUCAAGAAUGACCAAAAUGGCCUCUAAAAGAUGUUAAUCAUCUCAAAUGACCUUUUGUCU: 0.98
UUGUUACAUCUGGGAUACAGUCUAACUCAUCUGACUUAAUAUGCAUUUAAAAAAAUGCCAUAACUAUUAAACACCUUGUUUACAGACAGAUGAAAUAAAUUUAUUCCAAC: 0.299
AGGAUGAGGGGCCCUGACCCUGUGUCUCCAACUGCUGCACCCCAUCCCGACCCUGUCUCCGCCACCUCGCAGCCCCAUUAAAGCGCUCUCAUCUGGGCUCCGGUUCACUC: 0.691

Sample 2
Target: Interferon regulatory factor 7, full length, phosphomimetic (IRF7, Homo sapiens, UniProt Q92985, residues 1-503, S101K/S471D/S472D/S475D/S476D/S477D/S483D/S484D/S487D)
Technique: protein-binding microarray
Form: double-stranded DNA, one strand shown
Matrix: in vitro
Concentration: 250 nM
Notes: 60-bp whole probe
Added: salmon DNA 0.4 mg/ml
Baseline: random background probes
Direction: higher = stronger binding
Quantity: log fluorescence
Constant ends, left off below: GCCTAGCAC … GTCTTGATTCGCTTGACGCTGCTG
Residues (chain): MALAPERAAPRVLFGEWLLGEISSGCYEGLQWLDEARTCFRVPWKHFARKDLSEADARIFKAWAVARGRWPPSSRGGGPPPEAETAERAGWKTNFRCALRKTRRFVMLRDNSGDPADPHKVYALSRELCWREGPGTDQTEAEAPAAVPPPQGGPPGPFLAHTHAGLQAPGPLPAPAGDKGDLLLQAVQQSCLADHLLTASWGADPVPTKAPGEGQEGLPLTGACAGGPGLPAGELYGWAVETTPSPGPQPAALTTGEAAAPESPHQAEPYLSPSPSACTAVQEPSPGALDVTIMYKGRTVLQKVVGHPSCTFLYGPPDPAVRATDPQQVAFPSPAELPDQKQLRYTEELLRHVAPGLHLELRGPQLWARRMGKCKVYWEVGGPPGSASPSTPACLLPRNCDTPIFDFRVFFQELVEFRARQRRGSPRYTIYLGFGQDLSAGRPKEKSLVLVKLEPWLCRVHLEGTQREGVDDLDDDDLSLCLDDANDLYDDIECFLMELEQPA
TTCCTTTCTCTTCCGTTAGCGTGCTAG: 2.5 z-score
TCATAAAATGGACACTGTACTGTGCTA: 0.277 z-score
GACGATTCCTGTTTCGAGACGTGCTAG: 2.77 z-score
GCCGAACTGAGTCTCGAGACGTGCTAG: 0.496 z-score
TCATATGTGACCTTTTTAACTGTGCTA: -0.016 z-score
CTCTCATTCCAATTCTTTTTGTGCTAG: 0.968 z-score
TTAGGTTTCGGGTTCCGGTTAGTGCTA: 12 z-score
GACGGTATCGCTTTCGGGACGTGCTAG: 2.97 z-score
TCACCATTTTTTTTCACACTGTGCTAG: 0.664 z-score
TTTGGTTTCCTTCTCCTTTAGTGCTAG: 3.23 z-score
TTAGGTCTCCTTTTCTTTTAGTGCTAG: 1.68 z-score
ATAACTTTTTTTTTTCCCTGGTGCTAG: 0.536 z-score
TACGGACTGGACTTTCGGGACGTGCTA: -0.453 z-score
GACTGTATCGGTCTCGGGACGTGCTAG: 0.0943 z-score
TTAGATATCGGACTGGATTAGTGCTAG: 0.18 z-score
TCATTTTCATATATATAACTGTGCTAG: 1.67 z-score
CTAGTTTTTACTTTCTGAATGTGCTAG: 2.35 z-score

Sample 3
Target: Ras GTPase-activating protein-binding protein 1, C-terminal RGG region (G3BP1, Homo sapiens, UniProt Q13283)
Sequence of UniProt Q13283 (whole entry, looked up): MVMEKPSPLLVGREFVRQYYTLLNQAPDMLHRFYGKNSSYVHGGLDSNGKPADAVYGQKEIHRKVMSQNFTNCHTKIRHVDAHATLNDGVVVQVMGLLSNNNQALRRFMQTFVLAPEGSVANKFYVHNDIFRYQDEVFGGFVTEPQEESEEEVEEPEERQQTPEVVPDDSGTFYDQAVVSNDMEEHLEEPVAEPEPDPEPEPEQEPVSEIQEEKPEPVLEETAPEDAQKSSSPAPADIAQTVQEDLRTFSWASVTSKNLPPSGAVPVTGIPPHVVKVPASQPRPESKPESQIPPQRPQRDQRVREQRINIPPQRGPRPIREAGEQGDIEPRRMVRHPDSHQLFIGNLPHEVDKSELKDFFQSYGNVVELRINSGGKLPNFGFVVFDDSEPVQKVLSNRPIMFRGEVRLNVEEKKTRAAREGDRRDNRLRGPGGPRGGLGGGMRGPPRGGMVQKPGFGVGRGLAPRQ
Technique: RNA Bind-n-Seq
Form: RNA
Matrix: in vitro
Concentration: 1 µM
Notes: whole 134-nt RNA, ends assumed
Added: 150 mM KCl
Baseline: input library
Direction: higher = stronger binding
Quantity: log2 enrichment
Constant ends, left off below: GGGAGUUCUACAGUCCGACGAUC … UGGAAUUCUCGGGUGUCAAGG
GUCCUGUGCUACACAUCGUAUGUACCGAAUCAAACCCCCAAACCCCCCCAAACCCAAAAAAGUAUUAUGUUACGCCGUUCGGAUCUGCAC: -0.922
AGUCCUGUGCUACACAUCGUAUGUACCGAAUCAAAUUUUUAAAUUUUUAAAUUUAAAAAAGUAUUAUGUUACGCCGUUCGGAUCUGCACU: -2.77
UUUUACAACCCCAAUUUAAAGAAAGUUGUAGAGGCCCACAAGAUCGUUCUCUGCGCUGUAAGCCAUGUUUUCAUGCUGCUUUUCAAUGUG: -1.43
GCAGGAAGUAAAAACAAAUGGAAAUGCUACGGAUAGUGGCAGGGGUGGGGGUUGCUAAGGAAAGGGUGGGAUGGGAGUGGGUAAAGAGUU: 1.81
CAAGUCCUGUGCUACACAUCGUAUGUACCGAAUCGGGGUUGGGGUUGGGGUUGGGGAAAGUAUUAUGUUACGCCGUUCGGAUCUGCACUU: 2.42
GUCCUGUGCUACACAUCGUAUGUACCGAAUCGGGUUUUUUUGGGAAAAAAAGGGUGGGAAAGUAUUAUGUUACGCCGUUCGGAUCUGCAC: -0.0409
UAGAUAUCCAUAGAAAAGAGAACUCUGGAGCUGCAGAGAAGCCUGUCACCAUCCAUGCCACCCCAGAGGGGACUUCUGAAGCAUGCCGCA: -1.12
GUCCUGUGCUACACAUCGUAUGUACCGAAUCGGGGAAAAAGGGGAAAAAGGGGUGGGGAAAGUAUUAUGUUACGCCGUUCGGAUCUGCAC: 1.71
UCAAGUCCUGUGCUACACAUCGUAUGUACCGAAUCGGGUUGGGGUUGGUUGGGGAAAGUAUUAUGUUACGCCGUUCGGAUCUGCACUUCC: 0.76
UCAAGUCCUGUGCUACACAUCGUAUGUACCGAAUCGGAAAAAGGAAAAAGGAGGAAAGUAUUAUGUUACGCCGUUCGGAUCUGCACUUCC: -1.35
UCCUUCCUUUUUUUGUCUUAAACAUAGGACAUGGAUUUGAUUGACAUACUUUGGAGGCAAGAUAUAGAUCUUGGAGUAAGUCGAGAAGUA: -1.07
ACCAUGCACGUGGGCAUCUUUGGGAAGUGGGGCAAGGGGGGGAUAGGGAGGGGGGUAACACUUUGGGAACAGGUGGUCCCAGGUCGUUUC: -1.16
AGUCCUGUGCUACACAUCGUAUGUACCGAAUCGGGUUUUUGGGAAAGGGAAAAAGGGAAAGUAUUAUGUUACGCCGUUCGGAUCUGCACU: 0.279
UCCUCAAGUCCUGUGCUACACAUCGUAUGUACCGAAUCGGGAGGAGGAGGGGAAAGUAUUAUGUUACGCCGUUCGGAUCUGCACUUCCAG: -0.594

Sample 4
Target: Prothrombin, mature alpha-thrombin (F2, Homo sapiens, UniProt P00734)
Technique: aptamer microarray, sandwich
Form: DNA with 2'F-ANA
Matrix: in vitro
Concentration: 200 nM
Notes: whole 15-mer aptamer, many near background
Added: Cy3 exosite-II aptamer, 400 nM
Direction: higher = stronger binding
Quantity: mean fluorescence intensity
Sequence: GGTTGGTGTGGTTGG
2'F-ANA at 3 4 5 7 9 15: 117 a.u.
2'F-ANA at 1 2 4 5 7 10 11 12 13: 45.7 a.u.
2'F-ANA at 1 3 4 5 8 11 12 13 15: 74 a.u.
2'F-ANA at 1 2 4 8 11 12 15: 278 a.u.
2'F-ANA at 1 4 5 6 7 9 10 11 12 13 15: 48.1 a.u.
2'F-ANA at 5 8 9 11 12 15: 135 a.u.
2'F-ANA at 2 4 8 10 11 12 14: 81.6 a.u.
2'F-ANA at 2 3 4 5 6 7 11 12 13 14: 50.9 a.u.
2'F-ANA at 1 5 6 9 10 12 14: 45.4 a.u.
2'F-ANA at 1 4 6 9 11 12 14: 54.1 a.u.
2'F-ANA at 1 2 3 4 7 9 11 12 14: 69.4 a.u.
2'F-ANA at 2 5 6 7 10 11: 49.5 a.u.
2'F-ANA at 1 4 6 10 11 13: 56.1 a.u.
2'F-ANA at 2 5 6 7 8 10 11 12 15: 50.7 a.u.
2'F-ANA at 4 5 7 8 9 10: 48.1 a.u.
2'F-ANA at 2 4 5 7 8 11 12 13 14: 45.8 a.u.
2'F-ANA at 1 4 6 7 9 11 12 13 14: 58.2 a.u.
2'F-ANA at 1 5 8 11 13: 99.2 a.u.
2'F-ANA at 1 2 3 4 5 6 7 9 11: 57.2 a.u.
2'F-ANA at 1 2 3 6 8 10: 67.5 a.u.
2'F-ANA at 1 3 6 7 8 9 11 12 14: 112 a.u.
2'F-ANA at 1 2 3 8 9 10 14 15: 55.2 a.u.
2'F-ANA at 4 9 10 12 14: 85.2 a.u.
2'F-ANA at 2 3 6 7 9 10 12 13 14 15: 225 a.u.
2'F-ANA at 3 4 6 9 11 14 15: 232 a.u.

Excerpt of the above (sample 4):
2'F-ANA at 3 4 6 9 11 14 15: 232 a.u.
2'F-ANA at 1 2 3 6 8 10: 67.5 a.u.
2'F-ANA at 1 2 3 4 5 6 7 9 11: 57.2 a.u.
2'F-ANA at 3 4 5 7 9 15: 117 a.u.
2'F-ANA at 1 5 6 9 10 12 14: 45.4 a.u.
2'F-ANA at 1 4 6 9 11 12 14: 54.1 a.u.
